Experimental data of several laboratories.
Each numbered part is a random draw from the data of one study; scales do not carry over between parts. Positions count from the first letter of the parent shown.
Sequence of UniProt Q8NEB9 (whole entry, looked up): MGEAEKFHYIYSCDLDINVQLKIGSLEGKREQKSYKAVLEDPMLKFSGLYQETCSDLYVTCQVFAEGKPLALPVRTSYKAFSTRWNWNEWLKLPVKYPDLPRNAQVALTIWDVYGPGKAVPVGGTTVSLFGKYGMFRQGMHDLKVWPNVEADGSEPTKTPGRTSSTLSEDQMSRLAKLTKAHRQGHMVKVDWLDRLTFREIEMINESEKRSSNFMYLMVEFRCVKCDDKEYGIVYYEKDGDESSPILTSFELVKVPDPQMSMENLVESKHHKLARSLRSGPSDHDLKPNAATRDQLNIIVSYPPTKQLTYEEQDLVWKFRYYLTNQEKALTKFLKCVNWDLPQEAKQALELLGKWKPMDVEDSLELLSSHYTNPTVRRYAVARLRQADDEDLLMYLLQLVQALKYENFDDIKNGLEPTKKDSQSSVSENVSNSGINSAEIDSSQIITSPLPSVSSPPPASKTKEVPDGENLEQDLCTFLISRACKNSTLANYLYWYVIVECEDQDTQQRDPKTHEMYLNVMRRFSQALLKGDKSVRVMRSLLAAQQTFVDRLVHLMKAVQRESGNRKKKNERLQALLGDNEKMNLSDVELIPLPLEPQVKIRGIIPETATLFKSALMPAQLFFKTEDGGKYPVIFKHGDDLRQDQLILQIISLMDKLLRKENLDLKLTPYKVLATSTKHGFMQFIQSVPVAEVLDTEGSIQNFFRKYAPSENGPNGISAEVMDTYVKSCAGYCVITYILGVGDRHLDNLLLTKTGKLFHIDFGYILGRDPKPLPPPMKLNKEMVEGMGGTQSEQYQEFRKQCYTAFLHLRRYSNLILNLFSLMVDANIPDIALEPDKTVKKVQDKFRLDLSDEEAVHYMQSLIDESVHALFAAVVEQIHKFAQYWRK
Sequence of UniProt Q16620 (whole entry, looked up): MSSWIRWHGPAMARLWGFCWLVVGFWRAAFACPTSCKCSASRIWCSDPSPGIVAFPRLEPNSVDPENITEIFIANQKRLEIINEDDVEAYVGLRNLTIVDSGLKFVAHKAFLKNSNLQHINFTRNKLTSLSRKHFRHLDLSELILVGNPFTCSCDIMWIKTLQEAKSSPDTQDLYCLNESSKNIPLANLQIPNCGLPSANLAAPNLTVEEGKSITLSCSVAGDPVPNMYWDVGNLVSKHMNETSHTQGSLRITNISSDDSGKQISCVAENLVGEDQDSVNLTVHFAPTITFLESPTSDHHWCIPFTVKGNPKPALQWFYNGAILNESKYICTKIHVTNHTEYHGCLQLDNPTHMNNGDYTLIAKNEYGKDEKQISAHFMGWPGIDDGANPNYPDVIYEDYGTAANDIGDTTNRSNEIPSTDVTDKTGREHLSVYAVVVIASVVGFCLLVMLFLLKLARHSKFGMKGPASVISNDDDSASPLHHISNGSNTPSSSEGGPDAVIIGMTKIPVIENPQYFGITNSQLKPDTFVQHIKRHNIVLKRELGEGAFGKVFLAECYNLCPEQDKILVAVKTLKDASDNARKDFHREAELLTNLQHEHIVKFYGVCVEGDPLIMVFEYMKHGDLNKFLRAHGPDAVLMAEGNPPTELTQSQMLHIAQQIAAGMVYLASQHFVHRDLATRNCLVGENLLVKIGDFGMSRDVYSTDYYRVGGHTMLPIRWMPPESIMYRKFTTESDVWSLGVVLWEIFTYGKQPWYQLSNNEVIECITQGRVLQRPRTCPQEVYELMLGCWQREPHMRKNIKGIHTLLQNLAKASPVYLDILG
Sequence of UniProt Q02156 (whole entry, looked up): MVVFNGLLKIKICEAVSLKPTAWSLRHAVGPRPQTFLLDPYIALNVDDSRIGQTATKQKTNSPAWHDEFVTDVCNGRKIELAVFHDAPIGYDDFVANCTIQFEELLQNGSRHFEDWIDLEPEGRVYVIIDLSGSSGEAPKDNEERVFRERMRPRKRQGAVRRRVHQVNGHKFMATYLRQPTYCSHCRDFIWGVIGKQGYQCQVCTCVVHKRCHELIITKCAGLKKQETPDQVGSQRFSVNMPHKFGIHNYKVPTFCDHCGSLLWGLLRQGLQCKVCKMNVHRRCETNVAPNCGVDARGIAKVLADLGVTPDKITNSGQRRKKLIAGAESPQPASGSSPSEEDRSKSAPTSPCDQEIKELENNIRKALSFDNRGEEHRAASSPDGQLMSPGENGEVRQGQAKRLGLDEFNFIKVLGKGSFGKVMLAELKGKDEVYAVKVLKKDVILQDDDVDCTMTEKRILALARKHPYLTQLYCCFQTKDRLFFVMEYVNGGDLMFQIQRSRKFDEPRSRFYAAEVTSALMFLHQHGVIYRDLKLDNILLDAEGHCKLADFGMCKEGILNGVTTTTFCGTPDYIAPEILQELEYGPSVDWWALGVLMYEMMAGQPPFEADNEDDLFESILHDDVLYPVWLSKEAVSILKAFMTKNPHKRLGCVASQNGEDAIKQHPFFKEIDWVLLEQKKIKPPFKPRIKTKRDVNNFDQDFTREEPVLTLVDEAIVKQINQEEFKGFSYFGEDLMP
Sequence of UniProt Q9UBE8 (whole entry, looked up): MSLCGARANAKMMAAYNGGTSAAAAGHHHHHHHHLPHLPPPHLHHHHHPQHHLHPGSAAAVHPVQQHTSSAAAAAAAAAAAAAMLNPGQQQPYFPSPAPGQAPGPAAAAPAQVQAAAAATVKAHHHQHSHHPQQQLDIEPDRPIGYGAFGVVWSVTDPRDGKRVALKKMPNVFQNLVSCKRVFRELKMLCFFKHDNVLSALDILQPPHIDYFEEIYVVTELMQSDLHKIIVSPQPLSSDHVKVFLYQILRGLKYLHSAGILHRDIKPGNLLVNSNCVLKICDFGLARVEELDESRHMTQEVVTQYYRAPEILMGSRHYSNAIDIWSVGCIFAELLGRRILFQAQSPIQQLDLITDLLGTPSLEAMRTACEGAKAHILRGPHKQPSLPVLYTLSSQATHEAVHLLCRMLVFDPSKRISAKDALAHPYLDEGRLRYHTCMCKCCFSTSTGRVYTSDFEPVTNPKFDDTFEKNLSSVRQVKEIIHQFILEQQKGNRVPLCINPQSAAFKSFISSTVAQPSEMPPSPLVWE
Sequence of UniProt P23458 (whole entry, looked up): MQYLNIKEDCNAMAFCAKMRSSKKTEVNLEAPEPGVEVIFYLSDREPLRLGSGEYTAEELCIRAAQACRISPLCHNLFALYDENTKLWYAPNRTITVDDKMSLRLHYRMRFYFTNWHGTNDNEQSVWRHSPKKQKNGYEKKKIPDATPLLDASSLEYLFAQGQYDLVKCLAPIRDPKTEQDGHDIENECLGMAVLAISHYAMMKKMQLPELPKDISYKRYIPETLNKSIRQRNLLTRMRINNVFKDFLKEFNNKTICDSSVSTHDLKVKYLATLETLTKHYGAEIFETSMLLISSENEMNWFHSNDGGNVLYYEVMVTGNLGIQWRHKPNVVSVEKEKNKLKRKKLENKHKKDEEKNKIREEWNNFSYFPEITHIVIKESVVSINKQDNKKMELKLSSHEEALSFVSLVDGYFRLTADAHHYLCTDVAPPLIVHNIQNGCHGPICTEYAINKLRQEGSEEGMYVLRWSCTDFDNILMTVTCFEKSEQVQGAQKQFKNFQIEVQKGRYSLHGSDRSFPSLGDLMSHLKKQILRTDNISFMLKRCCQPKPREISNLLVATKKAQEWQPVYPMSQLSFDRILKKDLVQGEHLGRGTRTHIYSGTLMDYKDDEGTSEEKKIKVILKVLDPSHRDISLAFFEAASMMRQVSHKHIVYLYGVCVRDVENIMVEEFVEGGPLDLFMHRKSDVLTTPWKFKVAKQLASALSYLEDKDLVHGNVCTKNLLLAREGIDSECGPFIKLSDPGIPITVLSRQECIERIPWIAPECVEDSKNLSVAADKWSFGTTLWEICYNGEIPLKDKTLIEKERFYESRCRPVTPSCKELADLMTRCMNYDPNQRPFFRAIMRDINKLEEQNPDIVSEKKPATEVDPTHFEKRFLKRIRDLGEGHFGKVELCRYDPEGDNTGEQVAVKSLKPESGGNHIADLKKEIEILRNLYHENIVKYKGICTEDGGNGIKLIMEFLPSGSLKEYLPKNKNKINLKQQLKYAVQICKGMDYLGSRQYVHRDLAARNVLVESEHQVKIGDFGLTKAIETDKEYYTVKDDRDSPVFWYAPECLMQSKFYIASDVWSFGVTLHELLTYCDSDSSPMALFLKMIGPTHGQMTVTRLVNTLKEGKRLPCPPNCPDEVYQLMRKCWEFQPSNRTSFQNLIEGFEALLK

Series 1 — target: CREBL2, bZIP domain (human); technique: DHFR protein complementation; matrix: yeast; baseline: wild-type JUN-FOS pair; reading: higher = stronger binding; measurement: binding fitness
Notes: single substitutions, most at no-binding floor
Starting sequence: JUN, bZIP domain (human); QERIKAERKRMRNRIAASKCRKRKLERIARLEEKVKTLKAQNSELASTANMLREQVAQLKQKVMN; partner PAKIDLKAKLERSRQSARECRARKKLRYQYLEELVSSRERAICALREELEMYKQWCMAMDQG
Variant = R30Y; result = -1.33 natural log
Variant = I28K; result = -1.54 natural log
Variant = Q55M; result = -1.32 natural log
Variant = K39F; result = -1.54 natural log
Variant = S47W; result = -1.48 natural log
Variant = E44A; result = -1.52 natural log
Variant = A40V; result = -1.49 natural log
Variant = V35H; result = -1.27 natural log

Series 2 — technique: RNA Bind-n-Seq; molecule type: RNA; matrix: in vitro; tested at: 20 nM; notes: 6-mer, flanks averaged, single round; added: 150 mM LiCl; baseline: input library; reading: higher = stronger binding; measurement: 6-mer enrichment (R)
Target: TAR DNA-binding protein 43, full length, His tag (TARDBP, Homo sapiens, UniProt Q13148, residues 1-414)
Sequence = UUUGGA; result = 1.08
Sequence = AUAGCG; result = 0.921
Sequence = UUAGCA; result = 0.898
Sequence = GGUGCA; result = 1.09
Sequence = UGAAGC; result = 0.938
Sequence = AUUCGA; result = 0.816
Sequence = GGGUGC; result = 1.28
Sequence = GGUAUU; result = 1.03

Series 3 — read-out: enzyme activity; mode: inhibitor; tested at: 0.5 µM; baseline: control; measurement: remaining activity
Target: Glycogen synthase kinase-3 alpha (GSK3A, Homo sapiens, UniProt P49840)
Sequence of UniProt P49840 (whole entry, looked up): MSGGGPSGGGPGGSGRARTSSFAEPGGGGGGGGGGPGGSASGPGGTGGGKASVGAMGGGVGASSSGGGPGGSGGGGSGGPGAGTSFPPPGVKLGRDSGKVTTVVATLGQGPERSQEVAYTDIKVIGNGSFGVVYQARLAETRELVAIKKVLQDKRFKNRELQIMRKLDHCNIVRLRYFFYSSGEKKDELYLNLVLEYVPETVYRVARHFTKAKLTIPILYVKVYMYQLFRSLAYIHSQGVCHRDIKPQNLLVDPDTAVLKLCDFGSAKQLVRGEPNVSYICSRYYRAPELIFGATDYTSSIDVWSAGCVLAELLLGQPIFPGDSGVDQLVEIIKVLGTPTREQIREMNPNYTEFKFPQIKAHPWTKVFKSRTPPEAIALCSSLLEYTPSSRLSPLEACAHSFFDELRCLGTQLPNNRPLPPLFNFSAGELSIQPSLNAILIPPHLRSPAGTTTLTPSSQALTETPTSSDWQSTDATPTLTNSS
SMILES = CCN(CC)CCNC(=O)c1c(C)[nH]c(/C=C2\C(=O)Nc3ccc(Cl)cc32)c1C; result = 88.3%
SMILES = c1ccc(-c2[nH]ncc2-c2ccnc3ccccc23)nc1; result = 95.1%
SMILES = Cn1nc2c3c(cccc31)C(=O)c1ccccc1-2; result = 91.1%
SMILES = COc1cc2c(cc1OC)-c1[nH]nc(Nc3cccc(F)c3)c1C2; result = 101%
SMILES = Cc1nc2cc3nc(-c4cccs4)cnc3cc2n1C; result = 94.1%
SMILES = Nc1cccc(-c2cc3c(Oc4cccc(O)c4)ncnc3[nH]2)c1; result = 41.6%
SMILES = COc1cc2ncnc(Nc3ccc(O)c(Br)c3)c2cc1OC; result = 131%

Series 4 — read-out: cell-free assay; technique: competition with immobilised ligand; tested at: 1 µM; measurement: remaining binding
Structure (SMILES): O=C(O)[C@H]1[C@H](Cn2nnc3ccccc3c2=O)CC[C@@H]1C(=O)c1ccc(OCCC2CCOCC2)cc1
target = WNK3 (Homo sapiens, UniProt Q9BYP7); result = 100%
target = EPHA7 (Homo sapiens, UniProt Q15375); result = 100%
target = Tyrosine-protein kinase JAK1, JH2 (JAK1, Homo sapiens, UniProt P23458); result = 100%
target = NLK (Homo sapiens, UniProt Q9UBE8); result = 100%
target = NTRK2 (Homo sapiens, UniProt Q16620); result = 75%
target = PIK3C3 (Homo sapiens, UniProt Q8NEB9); result = 93%
target = PRKCE (Homo sapiens, UniProt Q02156); result = 100%

Repeated from above (series 4):
target = NLK (Homo sapiens, UniProt Q9UBE8); result = 100%
target = NTRK2 (Homo sapiens, UniProt Q16620); result = 75%
target = PIK3C3 (Homo sapiens, UniProt Q8NEB9); result = 93%
